Measurements of several laboratories.
Every numbered part comes from another study and shows a few of its results, in no order.
Chain of UniProt P49137 (whole entry, looked up): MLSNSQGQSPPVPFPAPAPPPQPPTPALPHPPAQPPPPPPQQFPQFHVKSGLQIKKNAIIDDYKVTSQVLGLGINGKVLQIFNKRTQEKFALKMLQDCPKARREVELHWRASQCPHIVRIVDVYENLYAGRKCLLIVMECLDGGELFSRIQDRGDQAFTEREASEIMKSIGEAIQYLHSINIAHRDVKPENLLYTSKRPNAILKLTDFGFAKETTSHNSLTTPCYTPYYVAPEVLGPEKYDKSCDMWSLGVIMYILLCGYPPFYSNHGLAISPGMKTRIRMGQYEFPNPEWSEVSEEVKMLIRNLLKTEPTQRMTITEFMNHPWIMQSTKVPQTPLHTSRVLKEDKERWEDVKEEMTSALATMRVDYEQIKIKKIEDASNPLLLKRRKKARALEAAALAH
Chain of UniProt O00762 (whole entry, looked up): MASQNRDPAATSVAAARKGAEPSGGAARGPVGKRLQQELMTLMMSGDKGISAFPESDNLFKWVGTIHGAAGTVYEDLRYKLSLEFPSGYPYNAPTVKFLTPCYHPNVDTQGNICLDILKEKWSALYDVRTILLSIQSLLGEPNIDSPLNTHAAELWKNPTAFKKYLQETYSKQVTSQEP
Chain of UniProt P61081 (whole entry, looked up): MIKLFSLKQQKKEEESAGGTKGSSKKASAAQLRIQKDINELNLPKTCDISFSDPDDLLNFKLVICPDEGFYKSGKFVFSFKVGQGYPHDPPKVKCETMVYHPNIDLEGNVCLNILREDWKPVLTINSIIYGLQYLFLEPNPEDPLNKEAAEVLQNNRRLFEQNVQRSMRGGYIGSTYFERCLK
Chain of UniProt Q712K3 (whole entry, looked up): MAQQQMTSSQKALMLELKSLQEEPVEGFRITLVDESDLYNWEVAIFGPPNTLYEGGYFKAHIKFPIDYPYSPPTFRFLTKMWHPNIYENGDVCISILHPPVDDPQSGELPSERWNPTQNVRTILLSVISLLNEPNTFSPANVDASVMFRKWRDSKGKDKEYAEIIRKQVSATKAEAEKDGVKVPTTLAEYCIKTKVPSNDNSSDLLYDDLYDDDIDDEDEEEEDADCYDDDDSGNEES
Chain of UniProt Q9H832 (whole entry, looked up): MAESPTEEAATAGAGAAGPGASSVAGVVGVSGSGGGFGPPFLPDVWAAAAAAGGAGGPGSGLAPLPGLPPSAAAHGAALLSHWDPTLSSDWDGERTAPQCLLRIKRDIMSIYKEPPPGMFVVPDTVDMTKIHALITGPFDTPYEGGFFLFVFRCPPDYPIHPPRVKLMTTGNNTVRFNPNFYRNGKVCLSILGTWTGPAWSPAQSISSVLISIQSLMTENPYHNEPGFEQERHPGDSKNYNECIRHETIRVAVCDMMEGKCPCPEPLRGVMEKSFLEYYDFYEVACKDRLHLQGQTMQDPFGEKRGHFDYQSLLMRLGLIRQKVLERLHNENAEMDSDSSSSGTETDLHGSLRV
Chain of UniProt P50406 (whole entry, looked up): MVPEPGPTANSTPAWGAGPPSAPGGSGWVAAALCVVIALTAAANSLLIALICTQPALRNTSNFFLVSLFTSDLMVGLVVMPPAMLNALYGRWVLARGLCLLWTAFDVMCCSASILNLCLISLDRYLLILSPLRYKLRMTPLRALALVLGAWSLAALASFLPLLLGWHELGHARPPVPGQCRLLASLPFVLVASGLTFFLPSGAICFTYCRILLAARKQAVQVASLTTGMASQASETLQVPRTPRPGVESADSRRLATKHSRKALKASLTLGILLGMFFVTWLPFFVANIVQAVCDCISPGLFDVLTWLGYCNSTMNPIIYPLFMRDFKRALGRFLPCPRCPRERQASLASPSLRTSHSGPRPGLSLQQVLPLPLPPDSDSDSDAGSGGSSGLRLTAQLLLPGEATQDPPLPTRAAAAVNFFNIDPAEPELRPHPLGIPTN
Chain of UniProt P11362 (whole entry, looked up): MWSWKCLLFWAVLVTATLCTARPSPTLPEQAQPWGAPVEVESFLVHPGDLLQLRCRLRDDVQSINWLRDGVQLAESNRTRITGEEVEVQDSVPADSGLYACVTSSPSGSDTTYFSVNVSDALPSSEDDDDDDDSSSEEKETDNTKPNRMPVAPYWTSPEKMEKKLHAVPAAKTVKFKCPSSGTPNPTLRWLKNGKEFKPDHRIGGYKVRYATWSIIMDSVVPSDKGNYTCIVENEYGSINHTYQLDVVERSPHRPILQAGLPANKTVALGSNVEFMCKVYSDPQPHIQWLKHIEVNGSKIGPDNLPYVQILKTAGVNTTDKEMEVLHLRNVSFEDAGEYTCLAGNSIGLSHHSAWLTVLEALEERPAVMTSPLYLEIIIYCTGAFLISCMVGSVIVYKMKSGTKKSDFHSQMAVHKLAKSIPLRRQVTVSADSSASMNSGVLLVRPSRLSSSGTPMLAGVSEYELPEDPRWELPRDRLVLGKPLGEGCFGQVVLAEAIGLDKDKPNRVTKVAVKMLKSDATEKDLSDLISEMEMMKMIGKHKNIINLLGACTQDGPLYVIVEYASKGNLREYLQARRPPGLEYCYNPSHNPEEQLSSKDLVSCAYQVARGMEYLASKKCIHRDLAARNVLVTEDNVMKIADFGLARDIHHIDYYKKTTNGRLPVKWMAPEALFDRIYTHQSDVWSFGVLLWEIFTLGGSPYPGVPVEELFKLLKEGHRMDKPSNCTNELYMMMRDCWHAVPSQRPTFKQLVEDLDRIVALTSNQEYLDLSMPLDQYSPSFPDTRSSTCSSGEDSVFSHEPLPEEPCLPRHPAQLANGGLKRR
Chain of UniProt Q7Z7E8 (whole entry, looked up): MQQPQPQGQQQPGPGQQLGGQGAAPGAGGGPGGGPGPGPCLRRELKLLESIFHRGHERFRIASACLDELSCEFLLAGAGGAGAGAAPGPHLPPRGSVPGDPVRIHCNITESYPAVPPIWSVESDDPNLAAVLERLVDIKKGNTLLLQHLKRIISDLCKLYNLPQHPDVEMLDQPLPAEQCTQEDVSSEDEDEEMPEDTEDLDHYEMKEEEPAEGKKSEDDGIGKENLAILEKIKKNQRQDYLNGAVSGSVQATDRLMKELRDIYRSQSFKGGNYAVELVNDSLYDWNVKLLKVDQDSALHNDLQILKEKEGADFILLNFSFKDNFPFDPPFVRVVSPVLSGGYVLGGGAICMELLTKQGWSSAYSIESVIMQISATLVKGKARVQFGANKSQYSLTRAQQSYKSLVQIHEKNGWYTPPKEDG
Chain of UniProt Q12866 (whole entry, looked up): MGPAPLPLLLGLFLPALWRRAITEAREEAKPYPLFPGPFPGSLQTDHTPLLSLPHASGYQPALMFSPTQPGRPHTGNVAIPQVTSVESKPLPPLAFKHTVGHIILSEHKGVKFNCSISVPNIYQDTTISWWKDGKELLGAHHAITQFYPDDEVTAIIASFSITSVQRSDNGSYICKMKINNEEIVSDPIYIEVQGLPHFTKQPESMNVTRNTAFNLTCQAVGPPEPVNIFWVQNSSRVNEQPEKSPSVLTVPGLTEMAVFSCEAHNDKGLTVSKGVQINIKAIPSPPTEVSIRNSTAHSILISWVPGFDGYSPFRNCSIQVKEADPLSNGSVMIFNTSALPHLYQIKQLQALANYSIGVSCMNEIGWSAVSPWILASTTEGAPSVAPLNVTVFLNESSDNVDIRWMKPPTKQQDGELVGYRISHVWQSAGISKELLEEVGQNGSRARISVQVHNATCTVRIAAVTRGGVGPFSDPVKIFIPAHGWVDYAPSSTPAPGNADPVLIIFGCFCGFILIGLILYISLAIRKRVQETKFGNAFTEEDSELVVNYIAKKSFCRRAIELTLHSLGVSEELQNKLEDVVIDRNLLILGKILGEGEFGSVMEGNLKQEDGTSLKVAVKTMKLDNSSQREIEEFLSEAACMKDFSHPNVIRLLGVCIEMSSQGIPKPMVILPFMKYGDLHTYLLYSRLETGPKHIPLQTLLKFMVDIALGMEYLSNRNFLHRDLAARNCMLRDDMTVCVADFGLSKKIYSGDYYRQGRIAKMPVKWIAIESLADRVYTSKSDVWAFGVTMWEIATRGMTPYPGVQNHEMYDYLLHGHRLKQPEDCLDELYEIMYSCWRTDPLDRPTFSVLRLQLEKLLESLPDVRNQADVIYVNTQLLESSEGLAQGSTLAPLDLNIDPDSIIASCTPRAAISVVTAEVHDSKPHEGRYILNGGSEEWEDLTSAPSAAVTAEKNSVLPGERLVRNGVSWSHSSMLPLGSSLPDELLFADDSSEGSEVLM
Chain of UniProt Q15349 (whole entry, looked up): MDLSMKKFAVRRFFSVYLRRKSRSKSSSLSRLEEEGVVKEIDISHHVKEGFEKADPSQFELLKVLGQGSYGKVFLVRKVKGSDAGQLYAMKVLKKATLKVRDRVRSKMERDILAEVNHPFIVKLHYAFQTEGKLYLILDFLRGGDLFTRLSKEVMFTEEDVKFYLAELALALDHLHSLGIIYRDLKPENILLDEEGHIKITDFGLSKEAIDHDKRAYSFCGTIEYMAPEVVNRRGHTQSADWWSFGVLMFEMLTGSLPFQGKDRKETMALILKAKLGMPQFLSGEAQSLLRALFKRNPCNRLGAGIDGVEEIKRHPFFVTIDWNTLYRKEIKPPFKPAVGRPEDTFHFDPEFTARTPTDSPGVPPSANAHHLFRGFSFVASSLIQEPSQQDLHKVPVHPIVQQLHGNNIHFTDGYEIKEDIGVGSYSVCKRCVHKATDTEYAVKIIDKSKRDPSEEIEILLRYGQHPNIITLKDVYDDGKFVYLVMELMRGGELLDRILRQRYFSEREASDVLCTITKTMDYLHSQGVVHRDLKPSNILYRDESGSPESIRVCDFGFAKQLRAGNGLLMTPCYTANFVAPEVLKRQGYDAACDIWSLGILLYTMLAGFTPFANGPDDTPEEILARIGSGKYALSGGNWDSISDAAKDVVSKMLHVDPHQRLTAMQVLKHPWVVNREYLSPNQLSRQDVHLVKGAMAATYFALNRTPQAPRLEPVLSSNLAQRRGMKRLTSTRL
Chain of UniProt P51668 (whole entry, looked up): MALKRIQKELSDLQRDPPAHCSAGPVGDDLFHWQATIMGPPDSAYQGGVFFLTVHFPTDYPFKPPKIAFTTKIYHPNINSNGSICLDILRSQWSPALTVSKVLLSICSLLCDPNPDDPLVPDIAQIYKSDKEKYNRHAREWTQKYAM

Sample 1 — technique: protein-binding microarray; form: double-stranded DNA, one strand shown; sample: in vitro; concentration: 2540 nM top; notes: 60-bp whole probe; with: salmon DNA 0.4 mg/ml; baseline: random background probes; direction: higher = stronger binding; shared flanks, not repeated: GCCTAGCAC … GTCTTGATTCGCTTGACGCTGCTG
Target: Interferon regulatory factor 3, full length, phosphomimetic (IRF3, Homo sapiens, UniProt Q14653, residues 1-427, S386D/S396D/S398D/S402D/T404D/S405D)
Construct (chain): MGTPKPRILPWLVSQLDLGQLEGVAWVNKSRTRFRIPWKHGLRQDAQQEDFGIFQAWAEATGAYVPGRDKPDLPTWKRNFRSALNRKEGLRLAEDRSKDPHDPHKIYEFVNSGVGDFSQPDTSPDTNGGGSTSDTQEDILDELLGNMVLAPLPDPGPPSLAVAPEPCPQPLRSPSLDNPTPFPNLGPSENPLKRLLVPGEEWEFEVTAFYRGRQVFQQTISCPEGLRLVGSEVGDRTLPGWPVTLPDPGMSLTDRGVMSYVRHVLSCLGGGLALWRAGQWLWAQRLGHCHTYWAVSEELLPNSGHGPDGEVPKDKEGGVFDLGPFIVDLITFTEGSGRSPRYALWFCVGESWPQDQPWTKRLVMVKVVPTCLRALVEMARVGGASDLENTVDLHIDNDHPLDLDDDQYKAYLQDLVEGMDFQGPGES
`ACACTACCTGACTTCAAACTGTGCTAG`: “fitted relative affinity” 0.501 z-score.
For `GACGATCTCAGTCTCGAAACGTGCTAG`, “fitted relative affinity” read 1.09 z-score.
`GACGGTCTCCTTCTCCTAACGTGCTAG`: “fitted relative affinity” 4.24 z-score.
`TTAGGTTTCGGGTTACGGTTAGTGCTA` — result for “fitted relative affinity”: 4.94 z-score.
For `TCATGTCTGGGATGTAATACTGTGCTA`, “fitted relative affinity” read -0.32 z-score.
`GTCACTCTCTGGGCTGTGGGTGTGCTA` — result for “fitted relative affinity”: 0.0943 z-score.
`TCACCCTTTGCTTTCCTACTGTGCTAG`: “fitted relative affinity” 2.39 z-score.
For `GACGGACTGGGACAGGGGACGTGCTAG`, “fitted relative affinity” read -0.668 z-score.

Sample 2 — SMILES: CCCCc1c(-c2ccc(O)cc2)[nH]c2nccnc12; observed: enzyme activity; mode: inhibitor; concentration: 0.5 µM; baseline: control
It gave 64.9% for remaining activity (ABL2 (Homo sapiens, UniProt P42684)).
The remaining activity was 99.3% (MAP3K5 (Homo sapiens, UniProt Q99683)).
MERTK (Homo sapiens, UniProt Q12866) — remaining activity: 94.1%.
The remaining activity was 92.6% (ARAF (Homo sapiens, UniProt P10398)).
The remaining activity was 92.2% (NEK1 (Homo sapiens, UniProt Q96PY6)).
GSK3B (Homo sapiens, UniProt P49841) — remaining activity: 75.4%.
For RPS6KA2 (Homo sapiens, UniProt Q15349): remaining activity read 87.7%.
It gave 101% for remaining activity (MST1R (Homo sapiens, UniProt Q04912)).
The remaining activity was 87.6% (FRK (Homo sapiens, UniProt P42685)).
FGFR3 (Homo sapiens, UniProt P22607) — remaining activity: 80%.
It gave 92.6% for remaining activity (MAPKAPK2 (Homo sapiens, UniProt P49137)).
MAP2K2 (Homo sapiens, UniProt P36507) — remaining activity: 84.7%.
MAPK3 (Homo sapiens, UniProt P27361) — remaining activity: 101%.
It gave 81.8% for remaining activity (FGFR1 (Homo sapiens, UniProt P11362)).

Sample 3 — Substance: BRCA1 RING domain (UniProt P38398); technique: yeast two-hybrid; sample: yeast; notes: mostly zero background; baseline: not given; direction: higher = stronger interaction
It gave 0 for “lacZ reporter activity” (UBE2M UBC core domain (UniProt P61081)).
For UBE2Q1 UBC core domain (UniProt Q7Z7E8): “lacZ reporter activity” read 0.
It gave 0 for “lacZ reporter activity” (UBE2J1 UBC core domain (UniProt Q9Y385)).
UBE2C UBC core domain (UniProt O00762) — “lacZ reporter activity”: 0.
The “lacZ reporter activity” was 0 (UBE2R2 UBC core domain (UniProt Q712K3)).
It gave 0 for “lacZ reporter activity” (BIRC6 UBC core domain (UniProt Q9NR09)).
It gave 0 for “lacZ reporter activity” (UBE2Z UBC core domain (UniProt Q9H832)).
For UBE2D1 UBC core domain (UniProt P51668): “lacZ reporter activity” read 0.

Sample 4 — observed: cell-free assay; concentration: 10 µM
Structure (SMILES): CS(=O)(=O)c1cc(C2(NC(=O)c3cncc4c3cnn4-c3ccc(F)cc3)CC2)ccn1
For HTR7 (Homo sapiens, UniProt P34969): inhibition read 10.5%.
HTR6 (Homo sapiens, UniProt P50406) — inhibition: -21.8%.
For ADRB3 (Homo sapiens, UniProt P13945): inhibition read -5.91%.
The inhibition was -7.76% (ADRB2 (Homo sapiens, UniProt P07550)).
SIGMAR1 (Homo sapiens, UniProt Q99720) — inhibition: 26.4%.
It gave -1.14% for inhibition (DRD4 (Homo sapiens, UniProt P21917)).
The inhibition was -10.2% (ADRA1B (Homo sapiens, UniProt P35368)).
For ADRB1 (Homo sapiens, UniProt P08588): inhibition read -30.3%.

Repeated from above (sample 1):
`GACGGTCTCCTTCTCCTAACGTGCTAG`: “fitted relative affinity” 4.24 z-score.
`TTAGGTTTCGGGTTACGGTTAGTGCTA` — result for “fitted relative affinity”: 4.94 z-score.
For `TCATGTCTGGGATGTAATACTGTGCTA`, “fitted relative affinity” read -0.32 z-score.
`GTCACTCTCTGGGCTGTGGGTGTGCTA` — result for “fitted relative affinity”: 0.0943 z-score.
